# Experimental data collected from several papers.
# Protocols differ between the studies behind these lines. ± gives the spread as reported.
SMILES,assay,system,setting,half-life [h]
CC[C@@]1(O)C(=O)OCc2c1cc1n(c2=O)Cc2cc3c(CN(C)C)c(O)ccc3nc2-1,,human patients,"oral, 4 mg, day 15, geometric mean, with: pazopanib 800 mg",4.87
O=C(/C=C/c1cccc(S(=O)(=O)Nc2ccccc2)c1)NO[C@@H]1O[C@H](C(=O)O)[C@@H](O)[C@H](O)[C@H]1O,,"human mild liver dysfunction, plasma","intravenous, 400 mg/m^2, 30 min infusion, cycle 1 day -7, with: belinostat 400 mg/m^2 iv",4.1
NC1(c2ccc(-c3nc4ccn5c(=O)[nH]nc5c4cc3-c3ccccc3)cc2)CCC1,,human,"oral, 135 mg, expansion, with: dinaciclib 9 mg/m^2",63.4 ± 19.6
CCOc1ccc(Cc2cc([C@@H]3S[C@H](CO)[C@@H](O)[C@H](O)[C@H]3O)c(OC)cc2C)cc1,,"human, plasma","oral, 5 mg/day, day 7, multiple dose before breakfast",10.7 ± 2.4
COC(=O)C(c1ccccc1Cl)N1CCC(S)C(=CC(=O)O)C1 (stereo not shown),,"human patients, CYP3A4 wt/wt, plasma","75 mg clopidogrel daily, day 7, median",0.65
O=C(c1ccc(OCCN2CCCCC2)cc1)c1c(-c2ccc(O)cc2)sc2cc(O)ccc12,,"healthy humans, plasma","oral, 60 mg, with: acute green tea",23.4
COc1cc2ncnc(Nc3ccc(F)c(Cl)c3)c2cc1OCCCN1CCOCC1,,"human, plasma","oral, 250 mg, with: vorinostat 300 mg",25.1 ± 5.5
CCCOc1ccc(S(=O)(=O)NCCC2CCCN2C)cc1-c1nc2c(CCC)nn(C)c2c(=O)[nH]1 (stereo not shown),,"human, plasma","oral, dose not given",10 to 13
CCS(=O)(=O)N1CC(CC#N)(n2cc(-c3ncnc4[nH]ccc34)cn2)C1,,"healthy Chinese human subjects, plasma","oral, 2 mg, single dose, mean",5.85
NC(=O)N1CCC(CC(=O)N2CCC([C@H]3c4ncc(Br)cc4CCc4cc(Cl)cc(Br)c43)CC2)CC1,,"human, plasma","oral, 200 mg twice daily, cycle 1 day 15, multiple dose, with: gemcitabine 600 mg/m2",5.32
Cc1nc2c(F)cc(-c3nc(Nc4ccc(CN5CCNCC5)cn4)ncc3F)cc2n1C(C)C,,"human patients, plasma","oral, 150 mg, single dose, geometric mean",16
CC(C)(Sc1ccncc1-c1ccc(C#N)c2ccccc12)C(=O)O,,human,"oral, 5 mg, with: febuxostat 40 mg",13.2
CN[C@@H]1COc2c(S(=O)(=O)NC(=O)Nc3c4c(cc5c3CCC5)CCC4)cnn2C1,,human,"oral, 900 mg twice daily, day 7",6.7
C[C@H]1CNCCCN1S(=O)(=O)c1cccc2cncc(F)c12,,"human, male, plasma","ocular instillation, 1 drop per eye twice daily, day 8, with: brimonidine fixed-dose combination",0.325
CCn1c(C(=O)c2cc(C)cc(C#N)c2)c(C(C)C)c(=O)[nH]c1=O,,"healthy humans, plasma","oral, 150 mg once daily, 7 days",25.9 ± 13.1
CCOc1cc([C@@H](CS(C)(=O)=O)N2C(=O)c3cccc(NC(C)=O)c3C2=O)ccc1O[C@@H]1O[C@H](C(=O)O)[C@@H](O)[C@H](O)[C@H]1O,,"healthy human controls, plasma","oral, 30 mg apremilast, matched to mild impairment",13.2
CCc1cnn2c(NCc3ccc[n+]([O-])c3)cc(N3CCCC[C@H]3CCO)nc12,,"human, plasma","intravenous, dose not given",2.31 to 2.95
CCCOc1ccc([C@H]2CNC(=O)N2c2ccc3[nH]cnc3c2)cc1,,"human, fasted, elderly, CSF","oral, 500 mg twice daily, tablet, day 11, geometric mean",6.91
CN1CCN(c2ccc3nc(-c4c(N)c5c(F)cccc5[nH]c4=O)[nH]c3c2)CC1,,"human, plasma","oral, 300 mg, day 1, median, with: gemcitabine and capecitabine",15.3
N#CCNC(=O)c1ccc(-c2ccnc(Nc3ccc(N4CCOCC4=O)cc3)n2)cc1,,"human, plasma","oral, 200 mg momelotinib once daily, cycle 1 day 15, median, with: trametinib 1.0 mg once daily",12.4
Cc1ccc(NC(=O)c2ccc(CN3CCN(C)CC3)cc2)cc1Nc1nccc(-c2cncc(-c3oncc3C)c2)n1,,"older healthy human adults, plasma","oral, 250 mg single dose, fed, mean",38.7
O=CC[C@@H](O)[C@H](O)[C@H](O)CO,HPLC-fluorescence,"human patients, plasma","oral, 60 mg/kg/day, cycle 2",6.1 ± 3.9
Cc1ccc(NC(=O)c2ccc(CN3CCNCC3)cc2)cc1Nc1nccc(-c2cccnc2)n1,,"human, plasma","400 mg/day imatinib, day 14 of cycle 1, metabolite of imatinib, mean, with: IL-2 6 MIU/day days 10-14",32.5
CO[C@H]1C[C@@H]2CC[C@@H](C)[C@@](O)(O2)C(=O)C(=O)N2CCCC[C@H]2C(=O)O[C@H]([C@H](C)C[C@@H]2CC[C@@H](OCCO)[C@H](OC)C2)CC(=O)[C@H](C)/C=C(\C)[C@@H](O)[C@@H](OC)C(=O)[C@H](C)C[C@H](C)/C=C/C=C/C=C/1C,,"healthy adult human, blood","0.75 mg single dose, harmonic mean, compound alone",42.4
CC(=O)c1c(C)c2cnc(Nc3ccc(N4CCNCC4)cn3)nc2n(C2CCCC2)c1=O,,human,"oral, 95 mg/m^2 single dose, day 1",15.9 ± 7
C=C(C)[C@@H]1CC[C@]2(NCCN3CCS(=O)(=O)CC3)CC[C@]3(C)[C@H](CC[C@@H]4[C@@]5(C)CC=C(C6=CC[C@@](CF)(C(=O)O)CC6)C(C)(C)[C@@H]5CC[C@]43C)[C@@H]12,,healthy human volunteers,"oral, 200 mg, capsule, moderate-fat meal, arithmetic mean",26.6
O=c1[nH]c(=O)c(Cc2cccc(C(F)(F)F)c2)c([C@H]2CC[C@H](c3ccccc3)CC2)[nH]1,,"human, male, plasma","oral, 150 mg 14C solution, geometric mean",18.8
CN1CC[C@@H](NC(=O)Nc2ccc(C#N)cc2)C[C@@H]1c1nc2ccccc2[nH]1,item: total compound,"human, severe hepatic impairment, plasma","oral, 100 mg, fasted, single dose, arithmetic mean",20.7 ± 3.5
Nc1ccc(-c2nc([C@H]3CCc4cc(-c5cc(Cl)ccc5-n5cnnn5)cc(=O)n43)c(F)[nH]2)c(F)n1,,"human, plasma","oral, 80 mg, single dose, fed",18.5
CC(C)(C)OC[C@@H]1C(=O)NCCN1C(=O)C[C@H](N)Cc1cc(F)c(F)cc1F,,human,"10 mg once daily, day 10, steady state",35.7 ± 9
C[C@@H]1CCC[C@H](n2cnc(-c3cc(Cl)ccc3-n3cc(Cl)nn3)cc2=O)c2cc(ccn2)-c2c(cnn2C(F)F)NC1=O,,"human, fasted","200 mg once daily, day 14",13.2
CO[C@H]1C[C@@H]2CC[C@@H](C)[C@@](O)(O2)C(=O)C(=O)N2CCCC[C@H]2C(=O)O[C@H]([C@H](C)C[C@@H]2CC[C@@H](O)[C@H](OC)C2)CC(=O)[C@H](C)/C=C(\C)[C@@H](O)[C@@H](OC)C(=O)[C@H](C)C[C@H](C)/C=C/C=C/C=C/1C,,"healthy human subjects, whole blood","oral, 2 mg single dose, arithmetic mean, with: isavuconazole 200 mg once daily after loading",78.5
COCCCCn1c(C(=O)N(CC(C)C)[C@@H]2CNC[C@H](C(=O)N3CCOCC3)C2)nc2ccccc21,,"non-elderly human, plasma","oral, 160 mg once daily, day 7",9.4
Cn1cnc2c(F)c(Nc3ccc(Br)cc3Cl)c(C(=O)NOCCO)cc21,,"human cancer patients, plasma","oral, 75 mg, cycle 1 day 1",2.97 ± 0.89
CC(C)[C@H](N)C(=O)NCCCS(=O)(=O)O,,"human, both sexes, plasma","oral, 100 mg capsule",0.7 ± 0.11
CC(C)(/C=C(\C#N)C(=O)N1CCC[C@@H](n2nc(-c3ccc(Oc4ccccc4)cc3F)c3c(N)ncnc32)C1)N1CCN(C2COC2)CC1,,"human, male, plasma","oral, 400 mg tablet, single dose, range of individual values",1.41 to 6.98
CS(=O)(=O)n1cc2c(n1)CN([C@H]1CO[C@H](c3cc(F)ccc3F)[C@@H](N)C1)C2,,"healthy male human, plasma","oral, 12.5 mg single, fasted, geometric mean",68.9
O=C(CCCCCCC(=O)Nc1ccccc1)NO,,"human patients, serum","oral, 1700 mg once daily",11.1
CC[C@@H]1C(=O)N(C)c2cnc(Nc3ccc(C(=O)N[C@H]4CC[C@H](N5CCN(CC6CC6)CC5)CC4)cc3OC)nc2N1C(C)C,,"human, plasma","intravenous infusion, 350 mg over 2 h, first infusion, geometric mean",122
CCCCC1(CCCC)CN(c2ccccc2)c2cc(SC)c(OCC(=O)N[C@@H](C(=O)NCC(=O)O)c3ccccc3)cc2S(=O)(=O)C1,LC-MS/MS,"human, plasma","oral, 15 mg, single dose, before breakfast",2.98
CCOc1ccc(Cc2cc([C@]34OC[C@](CO)(O3)[C@@H](O)[C@H](O)[C@H]4O)ccc2Cl)cc1,,"human, type 2 diabetes, moderate renal impairment, plasma","oral, 15 mg",22.9 ± 7.4
CC(C)(/C=C(\C#N)C(=O)N1CCC[C@@H](n2nc(-c3ccc(Oc4ccccc4)cc3F)c3c(N)ncnc32)C1)N1CCN(C2COC2)CC1,,"human, plasma","oral, 100 mg single dose, median",1.6
Cc1[nH]c(/C=C2\C(=O)Nc3ccccc32)c(C)c1CCC(=O)O,HPLC-UV,"human, cancer patients, plasma","oral, 200 mg/m^2 three times daily, after meal, second dose",1.46
Cl.NCCc1c[nH]c(=S)n1[C@H]1COc2c(F)cc(F)cc2C1,mean,"human, male, plasma","oral, 200 mg, fasting",~19.9
C[C@H]1O[C@@H](O[C@H]2[C@@H](O)C[C@H](O[C@H]3[C@@H](O)C[C@H](O[C@H]4CC[C@@]5(C)[C@H](CC[C@@H]6[C@@H]5C[C@@H](O)[C@]5(C)[C@@H](C7=CC(=O)OC7)CC[C@]65O)C4)O[C@@H]3C)O[C@@H]2C)C[C@H](O)[C@@H]1O,,human,"oral, day 19, with: isavuconazole",44.1
O=C(c1cccnc1-c1ccncc1)N1CCC(O)(Cc2ccccc2)CC1,,"healthy human, plasma","oral, 300 mg once daily, day 14, arithmetic mean",4.22
CO[C@H]1C[C@@H]2CC[C@@H](C)[C@@](O)(O2)C(=O)C(=O)N2CCCC[C@H]2C(=O)O[C@H]([C@H](C)C[C@@H]2CC[C@@H](O)[C@H](OC)C2)CC(=O)[C@H](C)/C=C(\C)[C@@H](O)[C@@H](OC)C(=O)[C@H](C)C[C@H](C)/C=C/C=C/C=C/1C,,"human, whole blood","oral, 25 mg, without grapefruit juice",30
CNC(=O)c1ccc(-c2cnc3ncc(Cc4ccc5ncccc5c4)n3n2)cc1F,,"healthy human subjects, plasma","oral, 400 mg, geometric mean, alone",9.71
C[C@H](N)C(=O)N1C[C@H](CCCB(O)O)[C@](N)(C(=O)O)C1,,"human, plasma","oral, dose not given, cycle 1 day 1, all doses pooled",5.6 ± 1
Cc1cccc(C)c1OCC(=O)N[C@@H](Cc1ccccc1)[C@@H](O)C[C@H](Cc1ccccc1)NC(=O)[C@H](C(C)C)N1CCCNC1=O,,"human, HIV+/HCV−, plasma","oral, total drug, steady state, median, with: lopinavir/ritonavir twice daily",7.2
Cc1ccsc1C(=O)Nc1cc(CN2CCN(C(=O)CO)CC2)ccc1/C=C/c1n[nH]c2ccccc12,,"human patients, plasma","oral, 50 mg/day, day 28",13 ± 4.18
CCCC[C@H](NC(C)=O)C(=O)N[C@H]1CCC(=O)NC[C@@H](C(=O)N[C@@H](Cc2c[nH]c3ccccc23)C(N)=O)NC(=O)[C@H](CCCNC(=N)N)NC(=O)[C@@H](Cc2ccccc2)NC(=O)[C@H](Cc2c[nH]cn2)NC1=O,,"healthy human volunteers, plasma","subcutaneous, 1.0 mg once daily, day 7",7.1
